# Assay results pooled from the literature.
# UniProt Q13418, sequence (whole entry, looked up): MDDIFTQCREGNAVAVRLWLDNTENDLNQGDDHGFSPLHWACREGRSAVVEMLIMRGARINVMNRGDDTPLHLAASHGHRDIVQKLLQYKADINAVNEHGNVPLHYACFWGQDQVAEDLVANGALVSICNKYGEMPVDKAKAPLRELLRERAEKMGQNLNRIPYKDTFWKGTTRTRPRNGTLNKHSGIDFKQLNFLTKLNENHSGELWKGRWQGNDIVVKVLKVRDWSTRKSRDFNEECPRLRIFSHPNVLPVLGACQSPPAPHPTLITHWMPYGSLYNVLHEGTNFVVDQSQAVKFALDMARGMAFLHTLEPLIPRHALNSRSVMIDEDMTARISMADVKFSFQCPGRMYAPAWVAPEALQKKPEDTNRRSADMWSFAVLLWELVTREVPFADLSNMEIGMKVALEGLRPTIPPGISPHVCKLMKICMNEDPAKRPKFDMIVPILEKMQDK
SMILES,target or system,test,system,conditions,scale,quantity,value
COc1ccc(-n2nc(C(C)=O)s/c2=N\N=C(/C)c2ccc(NC(C)=O)cc2)cc1,HepG2,,,0.312 µM,,toxicity,86%
C[C@]12CCC(=O)C=C1CC[C@@H]1[C@@H]2CC[C@@]2(C)[C@H]1CC[C@]2(C)O,THP-1,pyroptotic LDH release,,"2 µM, 40 min, added: LPS then nigericin",,inhibition,-8.67%
C[C@H]1CN(c2n[nH]c3nc(N[C@H]4CC[C@H](NS(=O)(=O)CCC(F)(F)F)CC4)ncc23)CCO1,"ILK (Homo sapiens, UniProt Q13418)","inhibitor, Kinobeads competition profiling",,0.8 µM,relative to: vehicle,relative abundance,1.15
C[C@]12CC[C@H]3[C@@H](CC=C4CC(O)CC[C@@]43CO)[C@@H]1CCC2O (stereo partly drawn),LX-2 hepatic stellate cells,"gene expression, item: ACTA2, COL1A1",,"100 µM, added: TGFβ 1 ng/mL",,fibrotic marker upregulation,inhibited
CC[C@H](C)[C@@H]1NC(=O)[C@H](CO)NC(=O)[C@@H]2CCCN2C(=O)[C@@H](NC(=O)CN)CSSC[C@@H]2NC(=O)CNC(=O)[C@H](C)NC(=O)[C@H](CC(C)C)NC(=O)[C@@H]3CSSC[C@@H](C(=O)NCC(=O)O)NC(=O)[C@H](Cc4ccccc4)NC(=O)CNC(=O)[C@H](CC(N)=O)NC(=O)[C@@H]4CCCN4C(=O)CNC(=O)[C@H](CSSC[C@H](NC(=O)[C@H](CCCNC(=N)N)NC(=O)[C@H](Cc4c[nH]cn4)NC(=O)[C@H](CCCNC(=N)N)NC(=O)[C@H](CCCCN)NC(=O)[C@H](C(C)C)NC(=O)[C@H](CCCNC(=N)N)NC(=O)[C@H](CC(N)=O)NC1=O)C(=O)N[C@@H](CCCCN)C(=O)N[C@@H](CCC(N)=O)C(=O)N[C@@H](CC(=O)O)C(=O)N[C@@H](CO)C(=O)N[C@@H](CC(=O)O)C(=O)N3)NC(=O)[C@H](C(C)C)NC2=O,HEK293-TB,Wnt signaling,,added: Wnt3a transfection,,IC50,> 100 µM
CCCCCc1cc(O)c2c(c1)OC(C)(C)[C@@H]1CCC(C)=C[C@@H]21,capacitated human sperm,CASA,,"10 µM, 1 h",,Total motility,decreased
Cc1nc(-c2ccc(OCC(C)C)c(C#N)c2)sc1C(=O)O,human coronavirus OC43,virus-induced cell killing,MRC-5,screen,,maximum inhibition,21.1%
CCCN(CCC)C(=O)Cc1c(-c2ccc(Cl)cc2)nc2ccc(Cl)cn12,HEK293T ATF4-FLuc reporter,"ATF4 reporter gene, activator, luciferase reporter",,,,EC50,> 9.96 µM
CC(=O)O[C@H]1CC[C@@]2(C)C(=CC[C@@H]3[C@@H]2CC[C@]2(C)C(=O)CC[C@@H]32)C1,THP-1,pyroptotic LDH release,,"2 µM, 40 min, added: LPS then nigericin",,inhibition,4.92%
COc1cc2c(Oc3ccc4[nH]c(C)cc4c3F)ccnc2cc1OCC1(N)CC1,,,"sarcoma, recurrent or refractory, high-risk, paediatric","concentration not given, grade 3, whole group",,QTc interval prolongation incidence,0%
Cc1cnc(Nc2ccc(OCCN3CCCC3)cc2)nc1Nc1cccc(S(=O)(=O)NC(C)(C)C)c1,human coronavirus OC43,virus-induced cell killing,MRC-5,maximum over 10 doses,,maximum inhibition,0%
CN1C(=O)C(C2C3=C(CC(C)(C)CC3=O)Oc3c(O)cccc32)C(=O)N(C)C1=O (stereo not drawn),3T3-L1 during adipogenesis,Oil Red O,,IC20,relative to: untreated,lipid content reduction,~80%
CC[C@H](C)[C@@H]1NC(=O)[C@@H]2CCCN2C(=O)[C@H](CC(C)C)NC(=O)[C@H](CC(C)C)NC(=O)CNC(=O)[C@@H](NC(=O)[C@@H](NC(=O)[C@H](CC(=O)O)NC(=O)CNC(=O)[C@@H](NC(=O)[C@H](C)NC(=O)CNC(=O)[C@H](CCCCN)NC(=O)[C@H](CC(C)C)NC(=O)[C@H](CC(C)C)NC(=O)[C@H](CCCCN)NC(=O)CNC(=O)[C@@H](NC(=O)[C@@H](N)CC(C)C)C(C)C)C(C)C)C(C)C)CSSC[C@@H](C(=O)O)NC1=O,,"RNA-seq, item: Hck mRNA","mouse traumatic brain injury, frontal cortex and hippocampus",dose not given,relative to: TBI plus compound vs TBI,log2 fold change,-1.98
C[C@]12COC(=O)C[C@@H]1CC[C@@H]1[C@@H]2CC[C@@]2(C)[C@H]1CC[C@]2(C)O,THP-1,pyroptotic LDH release,,"2 µM, 40 min, added: LPS then nigericin",,inhibition,-0.922%
O=C1NC(=O)C(C2C3=C(CCCC3=O)Oc3ccc([N+](=O)[O-])cc32)C(=O)N1 (stereo not drawn),3T3-L1 during adipogenesis,Oil Red O,,IC20,relative to: untreated,lipid content reduction,~80%
